Experimental data collected from several papers.
Each line is one published result; not all experiments were run side by side.

| Compound | organism | test | test system | conditions | MIC |
| --- | --- | --- | --- | --- | --- |
| S=C(NCc1ccccn1)NCc1ccccn1 | Proteus vulgaris | microbial growth, well diffusion | – | – | 12.2 µg/mL |
| CN[C@@H]1[C@H](O)[C@H](NC)[C@H]2O[C@]3(O)[C@H](O[C@@H]2[C@H]1O)O[C@H](C)C[C@@]3(O)CNCc1ccc(F)cc1 | Mycobacteroides abscessus | – | ATCC 19977 ∆whiB7 ∆tap | 120 h | 16 µg/mL |
| CO[C@H]1/C=C/O[C@@]2(C)Oc3c(C)c(O)c4c(c3C2=O)C2=NC3(CCN(CC(C)C)CC3)NC2=C(NC(=O)/C(C)=C\C=C\[C@H](C)[C@H](O)[C@@H](C)[C@@H](O)[C@@H](C)[C@H](OC(=O)c2ccccc2-c2ccccc2)[C@@H]1C)C4=O | Mycobacteroides abscessus | – | ATCC 19977 arr deletion | 90% growth inhibition | 0.14 µM |
| CCCCCCCCCCCC[S+]([O-])CC1OC(OC2C(N)CC(N)C(OC3OC(CN)C(O)CC3N)C2O)C(O)C(N)C1O (mixture of isomers) | Shigella | – | clinical isolate | – | 150 µg/mL |
| CC[C@@H](C)[C@@H](NC(=O)[C@@H](C)NC(=O)[C@@H](CCCCN)NC(=O)[C@@H](CC(C)C)NC(=O)[C@@H](C)NC(=O)[C@H](NC(=O)[C@@H](Cc1c[nH]cn1)NC(=O)[C@@H](CC(C)C)NC(=O)[C@H](NC(=O)[C@H](NC(=O)[C@@H](CCCCN)NC(=O)[C@@H](CCCCN)NC(=O)[C@@H](C)NC(=O)[C@@H](CO)NC(=O)[C@@H](CCCCN)NC(=O)[C@@H](Cc1ccccc1)NC(=O)[C@H](NC(=O)[C@@H](CCCCN)NC(=O)[C@@H](CC(C)C)NC(=O)[C@@H](Cc1ccccc1)NC(=O)[C@@H](CO)NC(=O)[C@@H](CCCCN)NC(=O)[C@@H](Cc1c[nH]c2ccccc12)NC(=O)[C@@H](CCCCN)NC(C)=O)[C@H](C)O)[C@H](C)O)C(C)C)[C@H](C)O)C(=O)N[C@H](CO)C(=O)N[C@H](CO)C(N)=O | Acinetobacter baumannii | broth microdilution | ATCC 19606 | 24 h, 37 °C | 1.5 µM |
| CN[C@@H]1[C@H](O)[C@H](NC)[C@H]2O[C@]3(O)[C@H](O[C@@H]2[C@H]1O)O[C@H](C)C[C@]3(O)CNCc1ccc(F)cc1 | Streptococcus pyogenes | – | ATCC 700294 | – | 100 µg/mL |
| [O-][N+]1=C(c2ccccc2)C2=NCCN2c2ccccc21 | Parvimonas micra | – | ATCC 3870 | – | ≤ 0.06 µg/mL |
| CN1C(=O)[C@@H]2NC(=O)[C@@H]3NC(=O)[C@@H](c4ccc(O)cc4)NC(=O)[C@H](NC(=O)C(N)c4ccc(O)cc4)Cc4c[nH]c5cc(ccc45)-c4cc3cc(c4O)Oc3ccc(cc3)C[C@H]1C(=O)N[C@@H](C(=O)O)c1ccc(O)c(c1)Oc1ccc2cc1 (some centres unmarked) | Enterococcus faecium | – | WCC 0496, VRE-A | – | 4 to 8 µg/mL |
| COc1ccc(C2=[N+]([O-])c3ccccc3N3CC(C)(C)CN=C23)cc1 | Parvimonas micra | – | ATCC 3870 | – | ≤ 0.06 µg/mL |
| CC[C@H](C)[C@H](NC(=O)[C@@H](NC(=O)CN)C(C)C)C(=O)N[C@@H](Cc1ccccc1)C(=O)N[C@@H](CC(N)=O)C(=O)N[C@@H](C)C(=O)N[C@@H](CC(C)C)C(=O)N[C@@H](CCCCN)C(=O)NCC(=O)N[C@H](C(=O)N[C@@H](C)C(=O)N[C@@H](CCCCN)C(=O)N[C@H](C(=O)N[C@H](C(=O)N[C@@H](C)C(=O)N[C@@H](C)C(=O)N[C@@H](CCC(N)=O)C(=O)N[C@@H](CC(C)C)C(=O)N[C@@H](CC(C)C)C(=O)N[C@@H](CCCCN)C(=O)N[C@@H](CCCCN)C(=O)N[C@@H](C)C(=O)N[C@@H](CCCNC(=N)N)C(=O)N[C@H]1CSSC[C@@H](C(=O)O)NC(=O)[C@H](CO)NC(=O)[C@H](CCCCN)NC(=O)[C@H](CC(=O)O)NC(=O)[C@H](CC(C)C)NC(=O)[C@H](CCCCN)NC1=O)C(C)C)[C@@H](C)O)C(C)C | Staphylococcus aureus | – | MRSA NCTC 12493 | together with: NH4Cl 6 µM | 2 µM |
| CN(C)CCCNC(=O)[C@@H]1NC(=O)[C@@H]2Cc3ccc(cc3)Oc3cc4cc(c3O)-c3ccc5c(c[nH]c5c3)C[C@@H](NC(=O)C(N)c3ccc(O)cc3)C(=O)N[C@H](c3ccc(O)cc3)C(=O)N[C@H]4C(=O)N[C@@H](C(=O)N2C)c2ccc(cc2)Oc2cc1ccc2O (some centres unmarked) | Enterococcus faecium | – | brain heart infusion medium | – | 2 to 4 µg/mL |

For quick reference, copied from above:
| Compound | organism | test | test system | conditions | MIC |
| --- | --- | --- | --- | --- | --- |
| CN[C@@H]1[C@H](O)[C@H](NC)[C@H]2O[C@]3(O)[C@H](O[C@@H]2[C@H]1O)O[C@H](C)C[C@]3(O)CNCc1ccc(F)cc1 | Streptococcus pyogenes | – | ATCC 700294 | – | 100 µg/mL |
